Results from different studies.
Lines come from different studies, so protocols differ.
HDAC1: Histone deacetylase 1 (HDAC1, Homo sapiens, UniProt Q13547)
UniProt Q13547, sequence (whole entry, looked up): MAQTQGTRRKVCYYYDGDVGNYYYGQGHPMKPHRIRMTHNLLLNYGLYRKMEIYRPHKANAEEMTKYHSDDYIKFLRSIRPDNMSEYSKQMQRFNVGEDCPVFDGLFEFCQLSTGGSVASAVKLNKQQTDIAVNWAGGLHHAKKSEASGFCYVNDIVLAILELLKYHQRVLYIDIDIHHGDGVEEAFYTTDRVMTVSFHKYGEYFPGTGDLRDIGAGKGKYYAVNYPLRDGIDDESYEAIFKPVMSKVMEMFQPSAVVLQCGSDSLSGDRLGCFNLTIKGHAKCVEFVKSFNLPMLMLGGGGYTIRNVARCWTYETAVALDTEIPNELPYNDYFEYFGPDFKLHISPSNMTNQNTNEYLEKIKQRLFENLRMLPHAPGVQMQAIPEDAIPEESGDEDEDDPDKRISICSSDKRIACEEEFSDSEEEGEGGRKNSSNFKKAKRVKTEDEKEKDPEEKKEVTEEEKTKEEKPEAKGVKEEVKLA
UniProt Q9NZJ5, sequence (whole entry, looked up): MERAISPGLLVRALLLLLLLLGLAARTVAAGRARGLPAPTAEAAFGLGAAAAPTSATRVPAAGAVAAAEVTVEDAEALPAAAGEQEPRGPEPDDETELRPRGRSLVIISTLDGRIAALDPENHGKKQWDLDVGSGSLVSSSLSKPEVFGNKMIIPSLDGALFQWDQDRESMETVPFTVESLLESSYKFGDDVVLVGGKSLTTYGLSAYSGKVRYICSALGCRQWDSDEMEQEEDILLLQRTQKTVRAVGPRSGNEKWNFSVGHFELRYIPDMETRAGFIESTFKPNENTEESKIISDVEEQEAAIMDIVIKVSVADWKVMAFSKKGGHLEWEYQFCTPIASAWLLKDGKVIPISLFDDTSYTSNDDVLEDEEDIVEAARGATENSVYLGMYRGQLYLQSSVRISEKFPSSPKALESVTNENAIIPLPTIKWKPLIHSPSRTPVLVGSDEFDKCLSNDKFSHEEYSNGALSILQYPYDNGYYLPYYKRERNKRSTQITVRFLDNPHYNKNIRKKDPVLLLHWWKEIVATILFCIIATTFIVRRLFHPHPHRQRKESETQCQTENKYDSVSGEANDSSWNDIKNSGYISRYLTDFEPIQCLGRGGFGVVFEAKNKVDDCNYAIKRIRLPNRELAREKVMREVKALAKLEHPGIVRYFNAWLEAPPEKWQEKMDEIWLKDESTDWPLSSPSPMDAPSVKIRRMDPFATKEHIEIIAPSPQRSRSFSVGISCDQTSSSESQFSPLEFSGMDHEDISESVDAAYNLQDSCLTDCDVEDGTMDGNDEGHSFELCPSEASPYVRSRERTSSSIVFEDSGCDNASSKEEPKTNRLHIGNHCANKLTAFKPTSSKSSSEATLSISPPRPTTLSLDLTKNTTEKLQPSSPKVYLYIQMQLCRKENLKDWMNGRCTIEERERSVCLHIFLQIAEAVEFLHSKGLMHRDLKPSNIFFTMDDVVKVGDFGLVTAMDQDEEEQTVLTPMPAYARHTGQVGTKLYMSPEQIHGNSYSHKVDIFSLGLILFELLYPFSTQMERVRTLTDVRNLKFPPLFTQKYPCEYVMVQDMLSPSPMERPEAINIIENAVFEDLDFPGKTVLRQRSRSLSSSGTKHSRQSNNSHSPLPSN
UniProt P41143, sequence (whole entry, looked up): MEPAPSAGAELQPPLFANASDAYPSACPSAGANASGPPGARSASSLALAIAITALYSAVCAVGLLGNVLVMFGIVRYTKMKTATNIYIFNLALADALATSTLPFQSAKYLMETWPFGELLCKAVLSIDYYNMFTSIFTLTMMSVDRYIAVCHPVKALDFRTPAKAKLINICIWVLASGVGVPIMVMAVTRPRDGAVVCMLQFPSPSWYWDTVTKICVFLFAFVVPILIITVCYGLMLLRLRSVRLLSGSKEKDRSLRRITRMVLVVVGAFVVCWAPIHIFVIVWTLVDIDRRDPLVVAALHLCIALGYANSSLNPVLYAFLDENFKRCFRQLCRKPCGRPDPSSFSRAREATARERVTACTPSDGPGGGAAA
UniProt P43681, sequence (whole entry, looked up): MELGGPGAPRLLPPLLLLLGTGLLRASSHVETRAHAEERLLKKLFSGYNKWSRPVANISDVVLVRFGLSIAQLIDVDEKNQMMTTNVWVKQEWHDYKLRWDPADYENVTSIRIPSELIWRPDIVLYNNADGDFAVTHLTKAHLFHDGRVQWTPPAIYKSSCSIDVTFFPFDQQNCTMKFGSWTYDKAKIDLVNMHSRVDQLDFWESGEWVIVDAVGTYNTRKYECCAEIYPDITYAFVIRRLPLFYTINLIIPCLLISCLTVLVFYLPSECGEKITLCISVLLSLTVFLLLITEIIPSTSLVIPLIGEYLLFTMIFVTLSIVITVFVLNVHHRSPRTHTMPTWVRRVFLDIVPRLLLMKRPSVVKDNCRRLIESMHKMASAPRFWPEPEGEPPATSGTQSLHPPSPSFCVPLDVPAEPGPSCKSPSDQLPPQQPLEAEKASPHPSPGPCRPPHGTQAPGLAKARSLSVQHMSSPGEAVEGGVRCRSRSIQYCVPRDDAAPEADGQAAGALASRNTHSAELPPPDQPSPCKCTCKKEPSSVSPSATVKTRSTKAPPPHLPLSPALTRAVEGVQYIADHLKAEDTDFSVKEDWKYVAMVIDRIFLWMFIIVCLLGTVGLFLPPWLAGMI
UniProt P17787, sequence (whole entry, looked up): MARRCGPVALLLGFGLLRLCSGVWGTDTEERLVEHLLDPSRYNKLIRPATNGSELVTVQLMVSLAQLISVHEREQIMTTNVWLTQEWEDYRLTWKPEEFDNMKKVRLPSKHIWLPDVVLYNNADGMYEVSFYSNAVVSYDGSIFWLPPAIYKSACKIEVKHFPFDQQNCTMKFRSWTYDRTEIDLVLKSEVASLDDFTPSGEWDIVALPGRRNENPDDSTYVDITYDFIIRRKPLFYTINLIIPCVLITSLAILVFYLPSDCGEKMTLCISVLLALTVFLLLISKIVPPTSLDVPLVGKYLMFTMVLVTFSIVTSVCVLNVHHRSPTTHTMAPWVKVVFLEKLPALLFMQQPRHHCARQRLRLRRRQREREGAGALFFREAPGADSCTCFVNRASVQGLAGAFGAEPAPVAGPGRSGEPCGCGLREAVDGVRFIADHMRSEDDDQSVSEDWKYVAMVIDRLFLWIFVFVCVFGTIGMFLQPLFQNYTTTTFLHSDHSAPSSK
UniProt P28336, sequence (whole entry, looked up): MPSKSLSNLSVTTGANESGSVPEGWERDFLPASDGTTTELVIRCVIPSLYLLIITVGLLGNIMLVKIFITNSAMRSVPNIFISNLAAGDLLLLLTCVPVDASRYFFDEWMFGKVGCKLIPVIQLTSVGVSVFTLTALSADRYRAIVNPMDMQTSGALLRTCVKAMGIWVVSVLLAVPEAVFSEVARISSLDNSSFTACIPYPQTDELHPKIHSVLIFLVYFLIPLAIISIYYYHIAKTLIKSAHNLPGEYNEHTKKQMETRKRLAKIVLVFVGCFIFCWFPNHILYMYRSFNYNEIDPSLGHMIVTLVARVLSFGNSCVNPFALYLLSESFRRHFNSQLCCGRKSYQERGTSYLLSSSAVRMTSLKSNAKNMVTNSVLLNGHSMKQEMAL
UniProt Q9NQR1, sequence (whole entry, looked up): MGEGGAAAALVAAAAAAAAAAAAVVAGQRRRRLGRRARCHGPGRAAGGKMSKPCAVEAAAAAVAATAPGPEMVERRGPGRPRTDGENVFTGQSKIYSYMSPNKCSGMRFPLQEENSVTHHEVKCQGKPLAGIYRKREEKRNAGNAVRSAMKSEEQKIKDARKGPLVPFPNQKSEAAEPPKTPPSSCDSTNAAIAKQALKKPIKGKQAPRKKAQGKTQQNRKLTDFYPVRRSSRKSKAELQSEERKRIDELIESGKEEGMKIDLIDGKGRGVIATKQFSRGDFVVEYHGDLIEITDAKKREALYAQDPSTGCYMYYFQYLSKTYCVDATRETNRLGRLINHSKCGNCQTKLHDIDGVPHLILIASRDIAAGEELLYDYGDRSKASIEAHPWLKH
UniProt P32245, sequence (whole entry, looked up): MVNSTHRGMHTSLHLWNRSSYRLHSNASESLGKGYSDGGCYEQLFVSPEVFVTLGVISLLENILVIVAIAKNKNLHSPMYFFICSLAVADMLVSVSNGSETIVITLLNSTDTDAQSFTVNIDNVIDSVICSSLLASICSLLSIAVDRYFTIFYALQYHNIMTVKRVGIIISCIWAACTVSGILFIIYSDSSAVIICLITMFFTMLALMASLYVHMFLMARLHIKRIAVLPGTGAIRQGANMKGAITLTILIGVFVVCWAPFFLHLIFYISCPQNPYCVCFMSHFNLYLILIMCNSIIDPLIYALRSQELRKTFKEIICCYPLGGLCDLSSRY

SMILES | target | test | system | setting | inhibition [%]
Cc1[nH]nc2c1N=C(c1ccccc1Cl)c1cnc(N3CCOCC3)cc1N2 | Sodium- and chloride-dependent GABA transporter 1 (Slc6a1, Rattus norvegicus, UniProt P23978) | cell-free assay |  | 10 µM | 2
Cc1c(COc2cc(OCc3cccc(C#N)c3)c(CNC(C)(CO)CO)cc2Cl)cccc1-c1cccc(OCc2ccc(/C=C/C(=O)NO)cc2)c1 | HDAC1 | enzyme activity, inhibitor |  | 1 µM | 21.8
Cn1ccc2cc(-n3c(=O)[nH]c4sc5c(c4c3=O)CCCC5)ccc21 | Glutamate receptor ionotropic, NMDA 1 (Grin1, Rattus norvegicus, UniProt P35439) | radioligand binding |  | 10 µM, NMDA receptor glycine site | 19
CC(C)Cn1c(SCC(=O)N2CCc3ccccc3C2)nc2cc(Cl)ccc2c1=O | Delta-type opioid receptor (OPRD1, Homo sapiens, UniProt P41143) | ligand displacement, radioligand |  | 10 µM | -8
C=CC(=O)Nc1cc(-c2nn(C3CCN(CCNC(=O)[C@H](C)CCC45CC6CC(CC(C6)C4)C5)CC3)c3ncnc(N)c23)ccc1Oc1ccccc1 | Cyclin-dependent kinase 20 (CDK20, Homo sapiens, UniProt Q8IZL9) | inhibitor, KiNativ profiling | biochemical | 2 µM | 25.7
C[Si](C)(C)C[C@@H](CN)CC(=O)O | Neuromedin-B receptor (NMBR, Homo sapiens, UniProt P28336) | cell-free assay, inhibitor |  | 75 µM | 0
Cc1cccc(O[C@H]2CCC[C@@H](C(C)CNCc3ccncc3)C2)c1 (relative stereo) | Eukaryotic translation initiation factor 2-alpha kinase 3 (EIF2AK3, Homo sapiens, UniProt Q9NZJ5) | enzyme activity, inhibitor |  | 1 µM | 8
CN(Cc1ccc(/C=C/C(=O)NO)cc1)CC12CC3CC(CC(C3)C1)C2 | human beta2 adrenoceptor | agonist radioligand binding |  | 0.05 µM | 0
CN(C)C/C=C/C(=O)Nc1ccc2nc(NCCCCCN(C)C)nc(NCCCCCCN(C)C)c2c1 | N-lysine methyltransferase KMT5A (KMT5A, Homo sapiens, UniProt Q9NQR1) | enzyme activity, inhibitor, radiometric |  | 10 µM | 0
CCn1cc(-c2cccc(C(F)(F)F)c2)c2sc(C(=N)NC3CCS(=O)(=O)CC3)cc2c1=O | SWI/SNF-related matrix-associated actin-dependent regulator of chromatin subfamily A member 2, isoform B (SMARCA2, Homo sapiens, UniProt P51531) |  |  | 1 µM | -5.08
COc1ccc(C#CC2=C[C@H]3C[C@@]4(OC(=O)C=C24)[C@H]2CC[C@H](C(OC)OC)N32)cc1 | Neuronal acetylcholine receptor; alpha4/beta2 (Homo sapiens, UniProt P17787+P43681) | ligand displacement, radioligand |  | 10 µM | 1
O=C(N(c1ccccc1)c1ccccc1)n1ccnn1 | Fatty-acid amide hydrolase 1 (Faah, Mus musculus, UniProt O08914) | serine hydrolase activity, inhibitor, competitive gel-based ABPP | mouse T-cell proteome | 1 µM, 30 min, 37 °C | < 50
Cc1c(COc2cc(OCc3cccc(C#N)c3)c(CNC(C)(CO)CO)cc2Cl)cccc1-c1cccc(OCc2ccc(C(=O)NO)cc2)c1 | HDAC1 | enzyme activity, inhibitor |  | 1 µM | 20.5
CC(C)NC(=O)[C@H](CCc1ccccc1)NC(=O)[C@H](CC(=O)NCC(C)(C)C)NC(=O)CCc1ccccc1 | Procathepsin L (CTSL, Homo sapiens, UniProt P07711) | enzyme activity, inhibitor |  | 100 µM | 0
CC(C)(C)c1ccccc1OS(=O)(=O)Oc1cccc(C(=O)NO)c1 | Histone deacetylase 5 (HDAC5, Homo sapiens, UniProt Q9UQL6) | enzyme activity, inhibitor, fluorescence |  | 10 µM | 10
O=C1c2sc(-c3ccc(N4CCC(CO)CC4)nc3F)nc2CCN1c1cccnc1 | Melanocortin receptor 4 (MC4R, Homo sapiens, UniProt P32245) | ligand displacement, radioligand |  | 1 µM | 1

A few entries again:
SMILES | target | test | system | setting | inhibition [%]
Cc1c(COc2cc(OCc3cccc(C#N)c3)c(CNC(C)(CO)CO)cc2Cl)cccc1-c1cccc(OCc2ccc(C(=O)NO)cc2)c1 | HDAC1 | enzyme activity, inhibitor |  | 1 µM | 20.5
